Assay results gathered from unrelated publications.
Lines come from different studies, so protocols differ.
Method: steady-state kinetics
B1: CstB (Staphylococcus aureus, UniProt G5ELA4); chain MFFKQFYDNHLSQASYLVGCQRTGEAIIIDPVRDLSKYIEVADSEGLTITQATETHIHADFASGIRDVAKRLNANIYVSGEGEDALGYKNMPSKTQFVKHGDIIQVGNVKLEVLHTPGHTPESISFLLTDLGGGSSVPMGLFSGDFIFVGDIGRPDLLEKSVQIKGSTEISAKQMYESVQNIKNLPDYVQIWPGHGAGSPCGKALGAIPISTIGYEKINNWAFNEIDETKFIESLTSNQPAPPHHFAQMKQVNQFGMNLYQSYDVYPSLDNKRVAFDLRSKEAFHGGHTKGTINIPYNKNFINQIGWYLDFEKDIDLIGDKSTVEKAKHTLQLIGFDKVAGYRLPKSGISTQSVHSADMTGKEEHVLDVRNDEEWNNGHLDQAVNIPHGKLLNENIPFNKEDKIYVHCQSGVRSSIAVGILESKGFENVVNIREGYQDFPESLK
B2: PPIP5K2 (Homo sapiens, UniProt O43314); chain MSEAPRFFVGPEDTEINPGNYRHFFHHADEDDEEEDDSPPERQIVVGICSMAKKSKSKPMKEILERISLFKYITVVVFEEEVILNEPVENWPLCDCLISFHSKGFPLDKAVAYAKLRNPFVINDLNMQYLIQDRREVYSILQAEGILLPRYAILNRDPNNPKECNLIEGEDHVEVNGEVFQKPFVEKPVSAEDHNVYIYYPTSAGGGSQRLFRKIGSRSSVYSPESNVRKTGSYIYEEFMPTDGTDVKVYTVGPDYAHAEARKSPALDGKVERDSEGKEVRYPVILNAREKLIAWKVCLAFKQTVCGFDLLRANGQSYVCDVNGFSFVKNSMKYYDDCAKILGNIVMRELAPQFHIPWSIPLEAED
B3: enzyme S146C (Schizosaccharomyces pombe, UniProt Q9Y7P0); chain MFTGLVEAIGVVKDVQGTIDNGFAMKIEAPQILDDCHTGDSIAVNGTCLTVTDFDRYHFTVGIAPESLRLTNLGQCKAGDPVNLERAVLSSTRMGGHFVQGHVDTVAEIVEKKQDGEAIDFTFRPRDPFVLKYIVYKGYIALDGTCLTITHVDDSTFSIMMISYTQSKVIMAKKNVGDLVNVEVDQIGKYTEKLVEAHIADWIKKTQA
B4: enzyme (Thermobifida fusca, UniProt Q47RA9); chain MIMIMASKSSPHDLPDVSGLSIAVLGGTGDQGRGLARRFAMAGHEVILGSRSAERAQAVAAELGEGLPVRGMDNAGAAEAGDVVIVAVPWDGHRALLESLKDVLAGKIVVDCVNPLGFDKRGAYALPVEEGSAAEQAAAILPDSRVVAAFHHVSAVLLLDPEVEKVDLDVLVLGDDREATDVVRALAARIPGVRGVYGGRLRNAHQVEAFTANLISINRRYKAHAGIRITDI
B5: putA N1014A (Rhodobacter capsulatus, UniProt D5AN87); chain MTDLSALGPKAKFAPEAEVLQALVAQAALPQPQLDRIAARGADLVARIRAEAKPSLMEHFLAQYGLSTREGVALMCLAEAMLRVPDTATIDALIEDKIAPSDWGKHLGTAASSLVNASTWALMLTGKVLDDGAGGIAGTLRGAMRRLGEPVIRAAVGQAMREMGRQFVLGETIEKALERAEKREAEGYTFSYDMLGEAALTAADAERYRLAYAQAITAIGKAATRGSIAANPGISIKLSALHPRYEVAQEARVMAELVPVVRDLARAAARAGIALHIDAEEQDRLALSLRVMAAVIADPETAGWEGFGAVVQAYGKRAGAAIDALAAMARAAGRRINIRLVKGAYWDAEMKRAQVEGHPGFPLFTSKTGTDVAYICLAAKLFGLNDCIYPQFATHNAHTVAAVLEMAAGRPFEFQRLHGMGARLHDIVLRETGGRCRIYAPVGAHRDLLAYLVRRLLENGANSSFVNQIVNESVPPAEVAACPFAALPTARAPRGLLAPADLFGAGRVNAQGFDLSDPEVLARIEAARDVTLPDAAPIVAGPVSGTLRPVRNPATGAVVAQVTEADAATVALALDAAQVWSAPAATRAAVLCRAADLYEENFGPIFAALAQEAGKTLGDAVSELREAVDFLRYYAAEGAADTRPPRGAVVAISPWNFPLAIFTGQVAAALMAGNAVLAKPAEQTPIIAALAVRLLHQAGVPETALQLLPGDGPTVGAALTRDPRVAGVVFTGSTETAQIIARAMAAHLAPGTPLIAETGGLNAMVVDSTALPEQAVRDVVASAFRSAGQRCSALRCLYVQDDIAPHLIGMLKGAMEELVSGDPARLSTDVGPVIDAEAKAGIETYLAANKARILHRSTAPEGGHFVAPALLQVGGIADLEREIFGPVLHLATFAAEDLPAVIAAINARGYGLTFGLHSRIDARVETVAETIRAGNIYVNRNQIGAVVGSQPFGGEGLSGTGPKAGGPLYLNRFYAPEPVVAVGGWTEAATPILPEARETQLDEIFLPGPTGELARLTRHQRGPILCLGPGAEAASAQAAAVVALGGQAVQASGAVSPKALETLTPLAGVLWWGAAEMGRAYAQALAVRPGPLVPLITAKPDLAHVAHERHLCVDTTAAGGNAALLAG
B6: enzyme (Geobacillus kaustophilus, UniProt Q5L3Y1); chain MKIGVLGLQGAVREHVRAIEACGAEAVIVKKPEQLEGLDGLVLPGGESTTMRRLIDRYGLMEPLKQFAAAGKPMFGTCAGLILLAKRIVGYDEPHLGLMDITVERNSFGRQRESFEAELSIKGVGDGFVGVFIRAPHIVEAGDGVDVLATYNDRIVAARQGQFLGCSFHPELTDDHRLMQYFLNMVKEAKMASSLK
Chain of UniProt O60656 (whole entry, looked up): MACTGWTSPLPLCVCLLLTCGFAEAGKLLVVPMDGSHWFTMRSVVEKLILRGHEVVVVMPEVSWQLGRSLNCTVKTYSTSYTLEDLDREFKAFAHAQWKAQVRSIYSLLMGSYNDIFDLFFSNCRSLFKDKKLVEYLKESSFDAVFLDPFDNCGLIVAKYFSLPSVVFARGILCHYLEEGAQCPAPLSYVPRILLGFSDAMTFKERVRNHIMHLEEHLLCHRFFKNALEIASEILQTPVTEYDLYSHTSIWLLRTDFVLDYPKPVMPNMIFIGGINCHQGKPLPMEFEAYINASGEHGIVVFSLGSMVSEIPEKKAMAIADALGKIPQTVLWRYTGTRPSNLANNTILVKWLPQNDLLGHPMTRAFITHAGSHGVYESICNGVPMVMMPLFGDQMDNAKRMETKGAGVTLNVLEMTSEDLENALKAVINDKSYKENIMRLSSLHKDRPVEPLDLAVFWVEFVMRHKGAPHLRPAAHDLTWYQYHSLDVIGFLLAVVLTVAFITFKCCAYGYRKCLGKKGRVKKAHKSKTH
Chain of UniProt Q8KN33 (whole entry, looked up): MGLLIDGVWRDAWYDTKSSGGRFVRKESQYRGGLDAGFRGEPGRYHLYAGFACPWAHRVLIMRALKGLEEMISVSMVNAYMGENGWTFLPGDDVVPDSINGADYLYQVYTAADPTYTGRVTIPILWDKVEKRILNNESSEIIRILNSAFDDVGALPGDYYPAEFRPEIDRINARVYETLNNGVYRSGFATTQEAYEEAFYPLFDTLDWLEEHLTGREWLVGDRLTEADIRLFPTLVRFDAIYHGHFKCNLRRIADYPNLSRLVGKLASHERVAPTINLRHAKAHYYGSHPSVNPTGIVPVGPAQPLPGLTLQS
Chain of UniProt P11509 (whole entry, looked up): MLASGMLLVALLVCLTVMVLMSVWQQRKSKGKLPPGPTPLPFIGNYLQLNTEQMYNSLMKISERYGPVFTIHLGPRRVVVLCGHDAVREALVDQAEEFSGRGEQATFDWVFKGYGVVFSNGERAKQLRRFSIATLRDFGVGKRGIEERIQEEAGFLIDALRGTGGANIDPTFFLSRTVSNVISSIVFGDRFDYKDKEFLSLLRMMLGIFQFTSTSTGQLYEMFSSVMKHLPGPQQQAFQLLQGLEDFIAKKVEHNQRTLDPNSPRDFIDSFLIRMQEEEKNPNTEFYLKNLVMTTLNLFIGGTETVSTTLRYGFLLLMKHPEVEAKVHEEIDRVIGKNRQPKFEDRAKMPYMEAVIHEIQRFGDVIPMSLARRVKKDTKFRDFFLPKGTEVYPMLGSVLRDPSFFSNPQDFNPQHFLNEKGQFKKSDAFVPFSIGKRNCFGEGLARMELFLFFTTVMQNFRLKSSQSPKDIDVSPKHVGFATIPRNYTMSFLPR
Chain of UniProt Q6PHW0 (whole entry, looked up): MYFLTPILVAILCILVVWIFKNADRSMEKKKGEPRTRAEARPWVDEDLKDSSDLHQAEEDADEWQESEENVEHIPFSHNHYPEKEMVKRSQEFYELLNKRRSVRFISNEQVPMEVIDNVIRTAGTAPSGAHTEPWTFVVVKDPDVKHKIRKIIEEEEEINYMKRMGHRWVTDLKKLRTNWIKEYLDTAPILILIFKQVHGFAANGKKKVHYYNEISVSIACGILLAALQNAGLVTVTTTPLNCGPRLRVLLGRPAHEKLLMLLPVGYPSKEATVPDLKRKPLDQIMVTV

Molecule	substrate	system	conditions	Km
IYD (Homo sapiens, UniProt Q6PHW0)	COc1cc(C[C@H](N)C(=O)O)cc(I)c1O	–	pH 7.4, 25 °C, added: sodium dithionite 0.5%	77 µM
protein (Shewanella denitrificans, UniProt Q12KT8)	Cc1cn([C@H]2C[C@H](O)[C@@H](COP(=O)(O)OP(=O)(O)O[C@H]3O[C@H](C)[C@@H](O)[C@H](N)[C@H]3O)O2)c(=O)[nH]c1=O	–	pH 8.5, added: acetyl-CoA 2 mM	110 µM
CYP2A6 (Homo sapiens, UniProt P11509)	CN1C(=O)CC[C@H]1c1cccnc1	microsomes	pH 6.7, cotinine to COX, not purified	390 µM
B1 (CstB)	CC(C)(COP(=O)(O)OP(=O)(O)OC[C@H]1O[C@@H](n2cnc3c(N)ncnc32)[C@H](O)[C@@H]1OP(=O)(O)O)[C@@H](O)C(=O)NCCC(=O)NCCSS	–	pH 6, 25 °C, NaBr 100 mM, air-saturated, added: Fe(II), O2	1100 µM
pcpF (Sphingobium chlorophenolicum, UniProt Q8KN33)	OCCS	–	pH 6.5, added: GS-TriCH, ascorbic acid 2 mM	930 µM
protein (Drosophila melanogaster, UniProt F2YPN7)	N[C@@H](CCC(=O)O)C(=O)O	–	pH 6.8, not purified	69.4 µM
B2 (PPIP5K2)	Nc1ncnc2c1ncn2[C@@H]1O[C@H](COP(=O)(O)OP(=O)(O)OP(=O)(O)O)[C@@H](O)[C@H]1O	–	–	22 µM
B3 (enzyme S146C)	Cc1nc2c(=O)[nH]c(=O)nc-2n(C[C@H](O)[C@H](O)[C@H](O)CO)c1C	–	pH 7.2, 37 °C, apparent	8.9 µM
B4 (enzyme)	NC(=O)c1ccc[n+](CCO)c1	–	pH 8, 25 °C	20000 µM
B5 (putA N1014A)	O=C(O)[C@@H]1CCCN1	–	pH 8, 23 °C	44500 µM
B6 (enzyme)	NC(=O)CC[C@H](N)C(=O)O	–	pH 9, 70 °C	5100 µM
UGT1A9 (Homo sapiens, UniProt O60656)	CCN(CC)C(=O)/C(C#N)=C/c1cc(O)c(O)c([N+](=O)[O-])c1	–	pH 7.4, 37 °C	8.64 µM

A few entries again:
Molecule	substrate	system	conditions	Km
protein (Drosophila melanogaster, UniProt F2YPN7)	N[C@@H](CCC(=O)O)C(=O)O	–	pH 6.8, not purified	69.4 µM
